Assay results pooled from the literature.
Lines come from different studies, so protocols differ. Values joined by “and” are separate records of one study, mostly repeats; a detail may differ. ± gives the spread as reported.
HCRTR1: Orexin/Hypocretin receptor type 1 (HCRTR1, Homo sapiens, UniProt O43613)
LRP1 CR8 domain: LRP1, CR8 domain (Homo sapiens, UniProt Q07954)
GRB2: Growth factor receptor-bound protein 2 (GRB2, Homo sapiens, UniProt P62993)
PPIA: Peptidyl-prolyl cis-trans isomerase A (PPIA, Homo sapiens, UniProt P62937)
LRP1 CR5 domain: LRP1, CR5 domain (Homo sapiens, UniProt Q07954)

For `OCCCCn1cnc2cc(Cl)c(Cl)cc21`, the Kd was 1500 µM (Regulator of G-protein signaling 17 (Homo sapiens, UniProt Q9UGC6); binding, NMR).
`CC[C@H](C)[C@H](NC(=O)[C@@H](N)CC(=O)O)C(=O)N1CCC[C@H]1C(=O)N1CCC[C@H]1C(=O)N1CCC[C@H]1C(=O)N[C@@H](CCCNC(=N)N)C(=O)N1CCC[C@H]1C(=O)N1CCC[C@H]1C(=O)N[C@@H](CCCCN)C(=O)N1CCC[C@H]1C(=O)N[C@@H](Cc1c[nH]cn1)C(=O)N1CCC[C@H]1C(=O)O` has a Kd of 152 ± 6 µM (Growth factor receptor-bound protein 2, C-terminal SH3 domain (GRB2, Homo sapiens, UniProt P62993); ITC; pH 8.0, 25 °C, wild-type C-terminal SH3 domain, with: Gab1-derived peptide; lower = stronger binding).
For `c1ccc2[nH]nnc2c1`, the Kd was 150 µM (CYP2E1 (Oryctolagus cuniculus, UniProt P08682); binding, type II spectral titration; pH 7.4, 25 °C, first catalytic site).
`CCCCCCNC(=O)Nc1ccc(CNC(=O)CN2CCc3cc(OC)c(OC)cc3C2Cc2ccc(OC)c(OC)c2)cc1` (stereo not drawn) has a Kd of 3.68 ± 1.8 µM (HCRTR1).
With `NC[C@H]1O[C@H](O[C@H]2[C@H](O)[C@@H](O[C@H]3O[C@H](CO)[C@@H](O)[C@H](N)[C@H]3O)[C@H](N)C[C@@H]2N)[C@H](N)C[C@@H]1O` the Kd was 10.8 ± 1.7 µM (HIV-1 nucleocapsid-SL2 RNA complex; binding, ESI-FTMS; pH 7.5).
For `O=C(O)CC(O)(CC(=O)O)C(=O)O`, the Kd was at least 48000 µM (SLC4A1 (Homo sapiens, UniProt P02730); Cl- exchange, inhibitor, 36Cl flux; erythrocytes; pH 8, trivalent form only).
`Nc1ncnc2c1ncn2[C@H]1C[C@H](O)[C@@H](COP(=O)(O)OP(=O)(O)OP(=O)(O)O)O1` gave a Kd of 18 ± 6 µM (DNA polymerase 3 (dpo3, Saccharolobus solfataricus, UniProt P95979, D236A); nucleotide incorporation, pre-steady-state single turnover; correct incorporation, template T, with: primer-template DNA).
With `COC(=O)[C@H](CCCCN)NC(C)=O` the Kd was 1800 ± 190 µM (LRP1 CR8 domain; binding, tryptophan fluorescence titration; isolated CR8 domain; pH 7.4, 298 K, ionic strength 0.02).
For `CC[C@H](C)[C@H](NC(=O)[C@@H](N)CC(=O)O)C(=O)N1CCC[C@H]1C(=O)N1CCC[C@H]1C(=O)N[C@@H](C)C(=O)N[C@@H](CCCNC(=N)N)C(=O)N1CCC[C@H]1C(=O)N1CCC[C@H]1C(=O)N[C@@H](CCCCN)C(=O)N1CCC[C@H]1C(=O)N[C@@H](Cc1c[nH]cn1)C(=O)N1CCC[C@H]1C(=O)O`, the Kd was 591 µM (GRB2; binding, ITC; pH 8).
`COc1ccc(CC2c3cc(OS(=O)(=O)C(F)(F)F)c(OC)cc3CCN2CC(=O)NCc2ccccc2)cc1OC` (stereo not drawn) has a Kd of 0.01 ± 0.0028 µM (HCRTR1).
`c1ccc2c3c(ccc2c1)-c1cccc2cccc-3c12` has a Kd of < 2.5 µM and 1.8 µM (Cytochrome P450 1B1 (CYP1B1, Homo sapiens, UniProt Q16678); binding, fluorescence; pH 7.4).
The Kd of `Cn1cc(NC(=O)c2cc(NC(=O)c3cc(NC=O)cn3C)cn2C)cc1C(=O)NCCC(=N)N` is reported as 57.9 ± 3.5 µM (HIV-1 SL4 RNA stem-loop; binding, ESI-FTMS titration; pH 7.5).
For `CCCOc1cc2c(cc1OC)CCN(CC(=O)NCc1ccccc1)C2Cc1ccc(OC)c(OC)c1` (stereo not drawn), the Kd was 0.0173 ± 0.0031 µM (HCRTR1).
`O=C(c1cc(-c2cc(F)cc([N+](=O)[O-])c2O)cc([N+](=O)[O-])c1O)C1CCc2ccccc21` (stereo not drawn) has a Kd of 0.54 µM (PPIA; ligand displacement, FP).
The Kd of `COc1cc(OC)cc(C(=O)Nc2ccc(Cc3ccc(NC(=O)c4cc(OC)cc(OC)c4)c(C(=O)O)c3)cc2C(=O)O)c1` is reported as 0.58 µM (PPIA; binding, SPR; pH 7.4).
With `O=C(O)c1cc(=O)[nH]c(=O)n1[C@@H]1OC[C@@H](O)[C@H]1O` the Kd was over 100000 µM (Orotidine 5'-phosphate decarboxylase (Saccharomyces cerevisiae S288c, UniProt P03962, S154A/Q215A); HPLC initial velocity; 25 °C, lower limit, no saturation).
`COCc1c(C(C)C)nc(C(C)C)c(/C=C/[C@@H](O)C[C@@H](O)CC(=O)O)c1-c1ccc(F)cc1` gave a Kd of 8.2 ± 2.2 µM (Cytochrome P450 2C8 (CYP2C8, Homo sapiens, UniProt P10632, K399R/R139K); binding, equilibrium spectral titration; purified enzyme; pH 7.4, 25 °C, second site, two-site model, with: 2 µM enzyme).
The Kd of `CC[C@H](C)[C@H](NC(=O)[C@H](CCCCN)NC(=O)[C@H](CC(C)C)NC(=O)[C@H](CC(C)C)NC(=O)[C@@H]1CCCN1C(=O)[C@H](CC(C)C)NC(=O)[C@H](CCCCN)NC(=O)[C@@H]1CCCN1C(=O)[C@H](CCCNC(=N)N)NC(=O)[C@@H](NC(=O)[C@H](CCC(N)=O)NC(=O)[C@H](CC(N)=O)NC(C)=O)C(C)C)C(=O)N[C@@H](CC(C)C)C(=O)N[C@@H](Cc1c[nH]cn1)C(=O)N[C@@H](C)C(=O)N[C@@H](C)C(=O)NCC(=O)N[C@@H](C)C(=O)N[C@@H](CCC(N)=O)C(=O)N[C@@H](Cc1ccc(O)cc1)C(N)=O` is reported as 1 ± 0.5 µM (Protein S100-B (Homo sapiens, UniProt P04271); binding, NMR line shape analysis; 35 °C, low salt).
With `CC(C)[C@@H](NC(=O)[C@@H](CC(=O)O)NC(=O)c1ccc(S(N)(=O)=O)cc1)C(=O)N[C@H](CC(=O)O)C(=O)N[C@H](CC(=O)O)C(=O)N[C@H](Cc1ccc(O)cc1)C(N)=O` the Kd was 0.082 µM (Carbonic anhydrase 2 (CA2, Homo sapiens, UniProt P00918); binding, SPR).
With `CCCC[C@H](NC(=O)[C@H](Cc1c[nH]c2ccccc12)NC(=O)COCC(=O)NCCCOCCOCCOCCCNC(=O)CN(CCN(CCN(CC(=O)O)CC(=O)O)CC(=O)O)CC(=O)O)C(=O)N[C@@H](CC(=O)O)C(=O)N[C@@H](Cc1ccccc1)C(N)=O` the Kd was 0.017 ± 0.002 µM (Gastrin/cholecystokinin type B receptor (CCKBR, Homo sapiens, UniProt P32239); Eu time-resolved fluorescence; HEK293 overexpressing CCKBR and MC4R; 1 h, 37 °C, with: Ac-CCK4 1 µM blocking).
The Kd of `CC[C@H](C)[C@H](NC(=O)[C@@H](N)CC(=O)O)C(=O)N[C@@H](C)C(=O)N1CCC[C@H]1C(=O)N1CCC[C@H]1C(=O)N[C@@H](CCCNC(=N)N)C(=O)N1CCC[C@H]1C(=O)N1CCC[C@H]1C(=O)N[C@@H](CCCCN)C(=O)N1CCC[C@H]1C(=O)N[C@@H](Cc1c[nH]cn1)C(=O)N1CCC[C@H]1C(=O)O` is reported as 365 µM (GRB2; binding, ITC; pH 8).
The Kd of `CC(=O)O[C@H]1C(=O)[C@@]2(C)[C@H]([C@H](OC(=O)c3ccccc3)[C@]3(O)C[C@H](OC(=O)[C@H](O)[C@@H](NC(=O)c4ccccc4)c4ccccc4)C(C)=C1C3(C)C)[C@]1(OC(C)=O)CO[C@@H]1C[C@@H]2O` is reported as 0.42 ± 0.06 µM (Cytochrome P450 2C8 (CYP2C8, Homo sapiens, UniProt P10632); ligand binding, equilibrium spectral binding; purified protein; pH 7.4, 25 °C, high-affinity site, 1% CHAPS).
With `phosphatidylinositol 4,5-bisphosphate` the Kd was 3.31 ± 0.888 µM (Ezrin, FERM domain (EZR, Homo sapiens, UniProt P15311); isothermal titration calorimetry; pH 7.5, 25 °C).
With `CC(C)C[C@H](NC(=O)[C@H](CC(N)=O)NC(=O)[C@H](CCCNC(=N)N)NC(=O)[C@H](CC(=O)O)NC(=O)[C@@H](NC(=O)[C@@H]1CCCN1C(=O)[C@@H]1CCCN1C(=O)[C@@H]1CCCN1)C(C)C)C(=O)N[C@@H](CCCCN)C(=O)N1CCC[C@H]1C(=O)N[C@@H](CC(=O)O)C(=O)N[C@@H](CCCNC(=N)N)C(=O)O` the Kd was 42 µM (GRB2; binding, ITC; pH 8).
`COc1ccc(CC2c3cc(OC)c(OC)cc3CCN2CC(=O)Nc2cc(C)nc3ccccc23)cc1OC` (stereo not drawn) has a Kd of 4.51 ± 0.43 µM (HCRTR1).
For `Aspartic acid methyl ester`, the Kd was 78000 ± 3000 µM (LRP1 CR8 domain; tryptophan fluorescence titration; pH 5.5, CR8 domain, low ionic strength).
For `CCCCCCCNCC(P(=O)(O)O)P(=O)(O)O`, the Kd was 0.0102 µM (Farnesyl diphosphate synthase (Trypanosoma cruzi, UniProt Q8WS26); binding, isothermal titration calorimetry; 28 °C, first site, two-site model).
`COc1ccc(CC2c3cc(OC)c(OC)cc3CCN2CC(=O)N2CCCC(c3ccccc3)C2)cc1OC` (stereo not drawn) gave a Kd of 3.53 ± 0.65 µM (HCRTR1).
`6-amino muramyl dipeptide` has a Kd of 0.362 ± 0.04 µM (NACHT, LRR and PYD domains-containing protein 1 (NLRP1, Homo sapiens, UniProt Q9C000); binding, surface plasmon resonance; amine derivative tethered to SAM).
For `COc1ccc(CC2c3cc(OC)c(OC)cc3CCN2CC(=O)N2CCC(c3ccccc3)CC2)cc1OC` (stereo not drawn), the Kd was over 10 µM (HCRTR1).
With `CSCC[C@H](NC(=O)[C@H](CC(C)C)NC(=O)[C@H](CC(C)C)NC(=O)[C@H](CC(C)C)NC(=O)[C@H](C)N)C(=O)N[C@@H](Cc1ccc(O)cc1)C(=O)N[C@@H](CCCNC(=N)N)C(=O)N[C@@H](CCCNC(=N)N)C(=O)O` the Kd was 1.95 µM (dnaK (Escherichia coli, UniProt P0A6Y8); peptide binding, surface plasmon resonance; with: ATP).
`CC1=C[C@H](O)CC(C)(C)[C@H]1/C=C/C(C)=C/C=C/C(C)=C/C=C/C=C(C)/C=C/C=C(C)/C=C/C1=C(C)C[C@@H](O)CC1(C)C` gave a Kd of 1.3 ± 0.01 µM (Glutathione S-transferase P (GSTP1, Homo sapiens, UniProt P09211); surface plasmon resonance; 25 °C, 1:1 binding model).
`O=C1c2c(O)ccc(O)c2C(=O)c2c(NCCNCCO)ccc(NCCNCCO)c21` has a Kd of 3.9 ± 0.5 µM (HIV-1 SL3 RNA stem-loop; binding, ESI-FTMS titration; pH 7.5).
With `COc1ccc(CC2c3cc(OC)c(OC)cc3CCN2CC(=O)NCc2ccc(N(C)C)cc2)cc1OC` (stereo not drawn) the Kd was 3.23 ± 1.3 µM (HCRTR1).
`COc1cccc2c1C(=O)c1c(O)c3c(c(O)c1C2=O)C[C@@](O)(C(C)=O)C[C@@H]3O[C@H]1C[C@H](N)[C@H](O)[C@H](C)O1` gave a Kd of 12.1 ± 0.9 µM (HIV-1 SL4 RNA stem-loop; binding, ESI-FTMS titration; pH 7.5).
`phosphatidylinositol 3,4,5-trisphosphate` has a Kd of 8 µM (Src kinase-associated phosphoprotein 2, PH domain (Skap2, Mus musculus, UniProt Q3UND0); fluorescence polarization direct titration; pH 6.5, 21 °C, compound labelled with BODIPY TMR-X).
For `COc1ccc(CC2c3cc(OCC(F)(F)F)c(OC)cc3CCN2CC(=O)NCc2cccnc2)cc1OC` (stereo not drawn), the Kd was 0.0085 ± 0.001 µM (HCRTR1).
With `Cc1noc(NS(=O)(=O)c2ccc(NC(=O)c3cc(-c4cccc(Br)c4)nc4ccccc34)cc2)c1C` the Kd was 1.13 µM (PPIA; binding, SPR; pH 7.4).
`COC(=O)[C@@H](N)CCCCN` gave a Kd of 280 ± 10 µM (LRP1 CR5 domain; binding, tryptophan fluorescence titration; isolated CR5 domain; pH 7.4, 298 K, ionic strength 0.02).
`Nc1ccn([C@H]2C[C@H](O)[C@@H](CO)O2)c(=O)n1` gave a Kd of 13.2 µM (Thymidine kinase 2, mitochondrial (Homo sapiens, UniProt O00142); binding, ITC).
The Kd of `COC(=O)[C@@H](N)CCCN=C(N)N` is reported as 580 ± 30 µM (LRP1 CR5 domain; tryptophan fluorescence titration; pH 7.4, 298 K, CR5 domain, ionic strength 0.02).
`CC1NC(NCCC[C@H](N)C(=O)O)=NC1=O` (stereo partly drawn) gave a Kd of 0.04 µM (Advanced glycosylation end product-specific receptor (AGER, Homo sapiens, UniProt Q15109); binding, fluorescence; pH 6.5).

For quick reference, copied from above:
`O=C(c1cc(-c2cc(F)cc([N+](=O)[O-])c2O)cc([N+](=O)[O-])c1O)C1CCc2ccccc21` (stereo not drawn) has a Kd of 0.54 µM (PPIA; ligand displacement, FP).
For `c1ccc2[nH]nnc2c1`, the Kd was 150 µM (CYP2E1 (Oryctolagus cuniculus, UniProt P08682); binding, type II spectral titration; pH 7.4, 25 °C, first catalytic site).
The Kd of `CC[C@H](C)[C@H](NC(=O)[C@@H](N)CC(=O)O)C(=O)N[C@@H](C)C(=O)N1CCC[C@H]1C(=O)N1CCC[C@H]1C(=O)N[C@@H](CCCNC(=N)N)C(=O)N1CCC[C@H]1C(=O)N1CCC[C@H]1C(=O)N[C@@H](CCCCN)C(=O)N1CCC[C@H]1C(=O)N[C@@H](Cc1c[nH]cn1)C(=O)N1CCC[C@H]1C(=O)O` is reported as 365 µM (GRB2; binding, ITC; pH 8).
`COC(=O)[C@@H](N)CCCCN` gave a Kd of 280 ± 10 µM (LRP1 CR5 domain; binding, tryptophan fluorescence titration; isolated CR5 domain; pH 7.4, 298 K, ionic strength 0.02).
